Measurements from different studies.
A part holds a random share of what one study measured.
UniProt P49759, sequence (whole entry, looked up): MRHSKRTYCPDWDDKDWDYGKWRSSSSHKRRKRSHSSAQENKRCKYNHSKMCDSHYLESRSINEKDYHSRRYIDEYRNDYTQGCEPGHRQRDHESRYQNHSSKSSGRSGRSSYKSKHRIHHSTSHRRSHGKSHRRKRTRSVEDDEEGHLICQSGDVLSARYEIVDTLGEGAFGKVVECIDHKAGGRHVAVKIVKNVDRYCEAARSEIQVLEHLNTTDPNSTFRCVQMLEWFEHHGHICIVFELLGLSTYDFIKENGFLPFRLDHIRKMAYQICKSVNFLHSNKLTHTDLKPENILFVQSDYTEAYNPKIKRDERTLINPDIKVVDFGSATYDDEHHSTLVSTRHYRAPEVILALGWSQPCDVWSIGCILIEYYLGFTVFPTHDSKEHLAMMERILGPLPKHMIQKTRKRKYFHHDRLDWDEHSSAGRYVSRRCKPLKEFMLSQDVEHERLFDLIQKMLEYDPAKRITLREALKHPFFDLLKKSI
UniProt Q9NQU5, sequence (whole entry, looked up): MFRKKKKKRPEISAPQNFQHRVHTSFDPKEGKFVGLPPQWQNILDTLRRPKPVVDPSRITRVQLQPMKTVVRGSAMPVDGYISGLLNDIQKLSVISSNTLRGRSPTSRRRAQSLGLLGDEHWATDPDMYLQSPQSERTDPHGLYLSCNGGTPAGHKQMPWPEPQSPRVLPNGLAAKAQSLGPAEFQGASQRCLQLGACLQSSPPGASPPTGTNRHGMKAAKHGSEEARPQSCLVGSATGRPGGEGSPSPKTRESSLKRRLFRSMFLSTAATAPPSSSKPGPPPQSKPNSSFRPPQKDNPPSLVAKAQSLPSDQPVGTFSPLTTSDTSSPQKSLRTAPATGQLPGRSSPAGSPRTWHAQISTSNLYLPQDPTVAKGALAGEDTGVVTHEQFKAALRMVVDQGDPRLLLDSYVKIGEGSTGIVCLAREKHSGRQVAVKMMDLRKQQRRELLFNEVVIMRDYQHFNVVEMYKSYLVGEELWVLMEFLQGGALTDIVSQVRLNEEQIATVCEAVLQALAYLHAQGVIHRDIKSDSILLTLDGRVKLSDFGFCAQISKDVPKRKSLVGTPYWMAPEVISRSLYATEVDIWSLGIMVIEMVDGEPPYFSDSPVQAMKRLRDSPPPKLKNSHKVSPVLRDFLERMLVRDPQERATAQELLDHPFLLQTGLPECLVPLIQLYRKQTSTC
UniProt O43318, sequence (whole entry, looked up): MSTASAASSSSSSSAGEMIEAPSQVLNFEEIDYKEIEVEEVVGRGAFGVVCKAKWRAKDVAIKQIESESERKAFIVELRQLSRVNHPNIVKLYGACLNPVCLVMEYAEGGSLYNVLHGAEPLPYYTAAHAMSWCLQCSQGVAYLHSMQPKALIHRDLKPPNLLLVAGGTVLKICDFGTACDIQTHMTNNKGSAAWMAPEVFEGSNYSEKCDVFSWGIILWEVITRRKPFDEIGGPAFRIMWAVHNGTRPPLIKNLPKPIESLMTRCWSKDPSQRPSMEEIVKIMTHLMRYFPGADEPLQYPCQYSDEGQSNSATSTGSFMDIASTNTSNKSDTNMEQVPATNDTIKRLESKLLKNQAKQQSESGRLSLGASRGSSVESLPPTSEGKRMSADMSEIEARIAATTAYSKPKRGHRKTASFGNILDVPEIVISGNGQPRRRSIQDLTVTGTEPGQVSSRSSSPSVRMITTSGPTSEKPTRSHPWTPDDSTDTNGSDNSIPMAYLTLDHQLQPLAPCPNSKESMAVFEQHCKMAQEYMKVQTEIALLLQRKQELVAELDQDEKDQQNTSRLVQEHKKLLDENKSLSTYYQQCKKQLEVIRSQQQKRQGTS
UniProt Q9HBY8, sequence (whole entry, looked up): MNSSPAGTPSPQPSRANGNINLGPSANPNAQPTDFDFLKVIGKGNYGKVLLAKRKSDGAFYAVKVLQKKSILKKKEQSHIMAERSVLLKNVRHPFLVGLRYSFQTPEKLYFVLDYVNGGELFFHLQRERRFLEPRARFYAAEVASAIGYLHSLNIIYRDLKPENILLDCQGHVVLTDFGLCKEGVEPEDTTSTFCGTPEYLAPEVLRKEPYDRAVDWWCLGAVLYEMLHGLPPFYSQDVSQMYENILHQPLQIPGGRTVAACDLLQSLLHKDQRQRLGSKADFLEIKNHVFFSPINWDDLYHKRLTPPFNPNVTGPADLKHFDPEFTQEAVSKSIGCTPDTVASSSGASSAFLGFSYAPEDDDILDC
UniProt P42336, sequence (whole entry, unmodified, looked up): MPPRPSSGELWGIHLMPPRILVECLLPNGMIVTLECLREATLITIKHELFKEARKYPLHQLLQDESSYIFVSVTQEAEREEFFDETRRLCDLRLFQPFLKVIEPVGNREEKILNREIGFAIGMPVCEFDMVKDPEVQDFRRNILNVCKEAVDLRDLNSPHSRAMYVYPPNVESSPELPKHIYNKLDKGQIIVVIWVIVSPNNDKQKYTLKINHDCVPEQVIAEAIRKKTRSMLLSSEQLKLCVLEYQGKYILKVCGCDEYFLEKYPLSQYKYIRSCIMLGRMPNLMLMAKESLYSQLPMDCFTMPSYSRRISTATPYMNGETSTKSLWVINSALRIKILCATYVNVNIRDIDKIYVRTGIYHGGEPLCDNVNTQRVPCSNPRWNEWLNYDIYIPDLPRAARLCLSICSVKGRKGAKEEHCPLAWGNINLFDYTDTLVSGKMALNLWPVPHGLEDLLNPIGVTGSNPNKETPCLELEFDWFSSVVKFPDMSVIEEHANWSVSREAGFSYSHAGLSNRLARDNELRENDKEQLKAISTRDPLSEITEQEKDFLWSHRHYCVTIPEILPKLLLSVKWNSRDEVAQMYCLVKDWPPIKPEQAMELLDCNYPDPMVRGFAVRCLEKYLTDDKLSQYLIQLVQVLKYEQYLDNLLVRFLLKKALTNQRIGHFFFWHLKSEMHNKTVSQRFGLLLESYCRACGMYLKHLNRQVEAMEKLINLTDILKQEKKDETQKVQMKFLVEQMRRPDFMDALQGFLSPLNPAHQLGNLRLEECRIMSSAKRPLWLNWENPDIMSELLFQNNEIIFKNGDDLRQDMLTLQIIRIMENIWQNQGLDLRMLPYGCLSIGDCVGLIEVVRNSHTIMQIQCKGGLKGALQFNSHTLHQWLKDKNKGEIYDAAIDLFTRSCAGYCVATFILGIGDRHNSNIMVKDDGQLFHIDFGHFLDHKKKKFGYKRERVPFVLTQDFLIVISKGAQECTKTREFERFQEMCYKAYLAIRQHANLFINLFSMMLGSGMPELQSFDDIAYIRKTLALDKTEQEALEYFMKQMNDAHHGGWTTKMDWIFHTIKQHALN
UniProt P07332, sequence (whole entry, looked up): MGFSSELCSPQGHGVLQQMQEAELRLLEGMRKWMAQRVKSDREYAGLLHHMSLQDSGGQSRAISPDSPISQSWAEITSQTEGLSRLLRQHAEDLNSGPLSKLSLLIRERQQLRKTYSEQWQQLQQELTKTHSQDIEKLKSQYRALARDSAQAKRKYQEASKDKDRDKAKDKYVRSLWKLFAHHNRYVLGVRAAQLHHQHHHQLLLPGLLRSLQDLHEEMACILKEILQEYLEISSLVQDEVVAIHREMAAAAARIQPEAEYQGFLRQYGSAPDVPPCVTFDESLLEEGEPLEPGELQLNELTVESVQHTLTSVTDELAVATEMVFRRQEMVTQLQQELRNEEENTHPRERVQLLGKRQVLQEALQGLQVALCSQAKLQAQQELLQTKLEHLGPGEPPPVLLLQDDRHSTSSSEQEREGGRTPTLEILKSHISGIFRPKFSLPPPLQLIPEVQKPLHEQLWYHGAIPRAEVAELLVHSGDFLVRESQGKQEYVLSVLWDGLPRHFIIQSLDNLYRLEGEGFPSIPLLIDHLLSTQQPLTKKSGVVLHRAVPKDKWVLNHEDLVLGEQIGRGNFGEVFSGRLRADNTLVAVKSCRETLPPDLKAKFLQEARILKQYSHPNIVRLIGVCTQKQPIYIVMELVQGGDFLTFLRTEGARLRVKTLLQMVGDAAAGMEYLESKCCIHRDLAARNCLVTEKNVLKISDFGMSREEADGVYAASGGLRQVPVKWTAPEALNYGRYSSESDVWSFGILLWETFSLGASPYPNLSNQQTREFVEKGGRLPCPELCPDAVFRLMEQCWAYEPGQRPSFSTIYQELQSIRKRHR
UniProt Q00535, sequence (whole entry, looked up): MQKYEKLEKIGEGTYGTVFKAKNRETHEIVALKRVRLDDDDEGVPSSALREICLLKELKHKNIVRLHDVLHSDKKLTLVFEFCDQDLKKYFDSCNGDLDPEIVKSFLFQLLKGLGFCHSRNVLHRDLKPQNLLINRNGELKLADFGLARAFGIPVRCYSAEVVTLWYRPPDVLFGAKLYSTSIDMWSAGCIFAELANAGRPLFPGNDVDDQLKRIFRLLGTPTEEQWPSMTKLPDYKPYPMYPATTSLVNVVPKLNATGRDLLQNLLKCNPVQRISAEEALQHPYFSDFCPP
UniProt P42680, sequence (whole entry, looked up): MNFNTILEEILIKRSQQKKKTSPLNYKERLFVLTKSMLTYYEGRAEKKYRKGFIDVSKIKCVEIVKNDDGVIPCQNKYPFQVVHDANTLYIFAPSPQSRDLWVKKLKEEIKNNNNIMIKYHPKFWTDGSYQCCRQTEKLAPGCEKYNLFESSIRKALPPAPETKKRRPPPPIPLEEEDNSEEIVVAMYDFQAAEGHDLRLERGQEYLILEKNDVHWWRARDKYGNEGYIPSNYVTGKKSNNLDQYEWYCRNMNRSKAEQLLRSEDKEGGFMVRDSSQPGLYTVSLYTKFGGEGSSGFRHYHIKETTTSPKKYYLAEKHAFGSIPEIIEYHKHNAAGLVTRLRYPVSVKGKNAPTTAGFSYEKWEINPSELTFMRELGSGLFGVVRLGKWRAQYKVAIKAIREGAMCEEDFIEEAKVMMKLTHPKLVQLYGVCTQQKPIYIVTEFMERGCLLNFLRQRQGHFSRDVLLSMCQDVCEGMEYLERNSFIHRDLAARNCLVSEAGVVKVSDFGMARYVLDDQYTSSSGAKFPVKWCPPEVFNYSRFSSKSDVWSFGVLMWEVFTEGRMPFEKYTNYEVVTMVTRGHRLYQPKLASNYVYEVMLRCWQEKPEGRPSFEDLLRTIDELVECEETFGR

Study 1
SMILES: CN(C)c1ncnc(-c2ccc3nc(Nc4cc(CN5CCN(C(=O)CC(F)(F)F)CC5)ccn4)[nH]c3c2)c1Cl
Concentration: 1 µM
| target | observed | method | remaining binding [%] |
| --- | --- | --- | --- |
| Calcium/calmodulin-dependent protein kinase type 1B (PNCK, Homo sapiens, UniProt Q6P2M8) | cell-free assay | competition with immobilised ligand | 72 |
| Tyrosine-protein kinase ABL1, non-phosphorylated (ABL1, Homo sapiens, UniProt P00519, T315I) | cell-free assay | competition with immobilised ligand | 46 |
| Epidermal growth factor receptor (EGFR, Homo sapiens, UniProt P00533, G719C) | cell-free assay | competition with immobilised ligand | 88 |
| Proto-oncogene tyrosine-protein kinase receptor Ret (RET, Homo sapiens, UniProt P07949, V804M) | cell-free assay | competition with immobilised ligand | 93 |
| Mitogen-activated protein kinase kinase kinase 7 (MAP3K7, Homo sapiens, UniProt O43318) | cell-free assay | competition with immobilised ligand | 74 |
| Tyrosine-protein kinase Fes/Fps (FES, Homo sapiens, UniProt P07332) | cell-free assay | competition with immobilised ligand | 100 |
| Mitogen-activated protein kinase kinase kinase kinase 3 (MAP4K3, Homo sapiens, UniProt Q8IVH8) | cell-free assay | competition with immobilised ligand | 74 |
| Tyrosine-protein kinase ABL1, phosphorylated (ABL1, Homo sapiens, UniProt P00519, F317I) | binding | – | 71 |
| Cyclin-dependent kinase 5 (CDK5, Homo sapiens, UniProt Q00535) | cell-free assay | competition with immobilised ligand | 100 |
| Leucine-rich repeat serine/threonine-protein kinase 2 (LRRK2, Homo sapiens, UniProt Q5S007, G2019S) | cell-free assay | competition with immobilised ligand | 69 |
| Phosphatidylinositol 4,5-bisphosphate 3-kinase catalytic subunit alpha isoform (PIK3CA, Homo sapiens, UniProt P42336, E545A) | cell-free assay | competition with immobilised ligand | 100 |
| Vascular endothelial growth factor receptor 3 (FLT4, Homo sapiens, UniProt P35916) | cell-free assay | competition with immobilised ligand | 63 |

Study 2
Cell line: A-375
Concentration: 100 µM
Time: 36 h
| SMILES | viability [%] |
| --- | --- |
| CC(=O)O[C@]1(C(C)=O)CC[C@H]2[C@@H]3CCC4=CC(=O)CCC4=C3[C@@H](c3ccc(N(C)C)cc3)C[C@@]21C | 80.4 |
| Cc1[nH]cnc1CN1CCc2c(c3ccccc3n2C)C1=O | 82.8 |
| N[C@@H]1CON=C1O | 119 |
| C/C=C/c1ccc(OC)cc1 | 102 |
| O=C(CS(=O)(=O)Cc1ccccc1)N1CCOCC1 | 111 |
| Cc1nc(C)c(C)nc1C | 118 |
| CC(C)(C)NCC(O)c1ccc(O)c(CO)c1 (centres unmarked) | 45.2 |
| O=C(CCCCCCNC(=O)c1cnc(N(c2ccccc2)c2ccccc2)nc1)NO | 6.34 |
| Clc1ccc2nsnc2c1NC1=NCCN1 | 129 |
| CC(=O)Nc1ccc(OC(=O)c2ccccc2OC(C)=O)cc1 | 88.5 |

Study 3
SMILES: CNc1cc2c(Nc3cccc(Br)c3)ncnc2cn1
Observed: enzyme activity
Mode: inhibitor
Concentration: 0.5 µM
Relative to: control
| target | remaining activity |
| --- | --- |
| Mitogen-activated protein kinase kinase kinase 20 (MAP3K20, Homo sapiens, UniProt Q9NYL2) | 82.3% |
| Dual specificity protein kinase CLK1 (CLK1, Homo sapiens, UniProt P49759) | 106% |
| Ephrin type-A receptor 2 (EPHA2, Homo sapiens, UniProt P29317) | 95.3% |
| Tyrosine-protein kinase JAK1 (JAK1, Homo sapiens, UniProt P23458) | 79.9% |
| Tyrosine-protein kinase Tec (TEC, Homo sapiens, UniProt P42680) | 109% |
| Dual specificity protein kinase CLK2 (CLK2, Homo sapiens, UniProt P49760) | 88.3% |
| Cyclin-dependent kinase 2, with cyclin E (CDK2, Homo sapiens, UniProt P24941) | 88.6% |
| Insulin-like growth factor 1 receptor (IGF1R, Homo sapiens, UniProt P08069) | 115% |
| Protein kinase C zeta type (PRKCZ, Homo sapiens, UniProt Q05513) | 98.6% |
| Ephrin type-A receptor 6 (EPHA6, Homo sapiens, UniProt Q9UF33) | 70% |
| Serine/threonine-protein kinase PAK 6 (PAK6, Homo sapiens, UniProt Q9NQU5) | 96.6% |
| Casein kinase I isoform epsilon (CSNK1E, Homo sapiens, UniProt P49674) | 84.8% |
| Ribosomal protein S6 kinase alpha-3 (RPS6KA3, Homo sapiens, UniProt P51812) | 86.6% |
| Vascular endothelial growth factor receptor 1 (FLT1, Homo sapiens, UniProt P17948) | 83.5% |
| Serine/threonine-protein kinase Sgk2 (SGK2, Homo sapiens, UniProt Q9HBY8) | 96.6% |
| Protein kinase C theta type (PRKCQ, Homo sapiens, UniProt Q04759) | 110% |
| SRSF protein kinase 1 (SRPK1, Homo sapiens, UniProt Q96SB4) | 90.7% |
| Casein kinase I isoform delta (CSNK1D, Homo sapiens, UniProt P48730) | 98.7% |
| Calcium/calmodulin-dependent protein kinase kinase 1 (CAMKK1, Homo sapiens, UniProt Q8N5S9) | 92.6% |
| Calcium/calmodulin-dependent protein kinase type 1 (CAMK1, Homo sapiens, UniProt Q14012) | 92.3% |
| Tyrosine-protein kinase receptor TYRO3 (TYRO3, Homo sapiens, UniProt Q06418) | 98.8% |

Mixed results
| Compound | method | notes | quantity | result |
| --- | --- | --- | --- | --- |
| CC(C)C[C@@H]1NC(=O)[C@@H](C)NC(=O)[C@@H](CC(C)C)NC(=O)[C@@H](CC(C)C)NC(=O)[C@H](C(C)C)NC(=O)[C@H](CC(C)C)NC(=O)[C@@H](CC(C)C)NC1=O | logD(dd/w) and ALogP | JT method | lipophilic permeability efficiency | 2.56 |

Some of these lines once more (study 1):
| target | observed | method | remaining binding [%] |
| --- | --- | --- | --- |
| Tyrosine-protein kinase ABL1, non-phosphorylated (ABL1, Homo sapiens, UniProt P00519, T315I) | cell-free assay | competition with immobilised ligand | 46 |
| Epidermal growth factor receptor (EGFR, Homo sapiens, UniProt P00533, G719C) | cell-free assay | competition with immobilised ligand | 88 |
| Proto-oncogene tyrosine-protein kinase receptor Ret (RET, Homo sapiens, UniProt P07949, V804M) | cell-free assay | competition with immobilised ligand | 93 |
| Mitogen-activated protein kinase kinase kinase 7 (MAP3K7, Homo sapiens, UniProt O43318) | cell-free assay | competition with immobilised ligand | 74 |
| Tyrosine-protein kinase Fes/Fps (FES, Homo sapiens, UniProt P07332) | cell-free assay | competition with immobilised ligand | 100 |
